# Measurements of several laboratories.
# Numbered parts are unrelated; each lists some results of a single study.

# Block 1
# Target: Interferon regulatory factor 5, full length, phosphomimetic (IRF5, Homo sapiens, UniProt Q13568-2, residues 1-514, K96S/S451D/S453D/S456D/S462D)
# Method: protein-binding microarray
# Form: double-stranded DNA, one strand shown
# Matrix: in vitro
# Concentration: 250 nM
# Notes: 60-bp whole probe
# Added: salmon DNA 0.4 mg/ml
# Reference: random background probes
# Direction: higher = stronger binding
# Shared flanks, not repeated: GCCTAGCAC … GTCTTGATTCGCTTGACGCTGCTG
Oligonucleotide,log fluorescence
TCATATATTCATATATAACTGTGCTAG,0.692 z-score
GACGGTATGGGACTGGGGACGTGCTAG,-0.383 z-score
TTAGGACTGCGTCTCCTTTAGTGCTAG,-0.48 z-score
GACGGACTGGACTTTCGAGACGTGCTA,3.36 z-score
TTAGATTTCAGTTCCTATTAGTGCTAG,2.3 z-score
TCAGCTTTCCCGTCCAGACTGTGCTAG,0.413 z-score
TTAGGACTGGGTCCCGGTTAGTGCTAG,-0.523 z-score
GGTCCCACCTCTTGGTGGGAGTGCTAG,-0.79 z-score

# Block 2
# Target: Centromere-binding protein 1, full length, N-terminal tag (CBF1, Saccharomyces cerevisiae, UniProt P17106, residues 1-351)
# UniProt P17106, sequence (whole entry, looked up): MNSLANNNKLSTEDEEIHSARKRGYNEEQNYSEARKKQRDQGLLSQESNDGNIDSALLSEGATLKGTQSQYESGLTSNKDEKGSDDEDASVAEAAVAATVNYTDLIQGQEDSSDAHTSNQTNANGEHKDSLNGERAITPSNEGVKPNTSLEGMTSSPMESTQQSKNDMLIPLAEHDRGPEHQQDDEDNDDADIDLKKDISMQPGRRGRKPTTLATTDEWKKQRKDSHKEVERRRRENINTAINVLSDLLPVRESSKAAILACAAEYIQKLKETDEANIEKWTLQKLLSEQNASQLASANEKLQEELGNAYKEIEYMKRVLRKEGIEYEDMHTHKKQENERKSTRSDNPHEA
# Method: protein-binding microarray
# Form: double-stranded DNA, one strand shown
# Matrix: in vitro
# Concentration: 0.8 µM
# Notes: whole 60-bp probe, no competitor
# Direction: higher = stronger binding
Oligonucleotide,fluorescence intensity [a.u.]
GAAAGCCTGGGATGCCACGAGGATGTATTTTGGTAGGTCTTGATTCGCTTGACGCTGCTG,568
GAACGAGTTCGAGGGCACGTTAGTTGGTTTCGATAGGTCTTGATTCGCTTGACGCTGCTG,514
CTACGCCAAGCAAGCCTCACGAGGATCGTCGGTTTCGTCTTGATTCGCTTGACGCTGCTG,540
GAAATGACTTGCGAAGGCATGATGCTTTGATTTTAGGTCTTGATTCGCTTGACGCTGCTG,531

# Block 3
# Cell line: HEK-293T
# Effect on: pseudovirus infection
# Method: FDA-approved drug library screen
# Organism: VSV pseudotyped with SARS-CoV-2 spike
# Concentration: 10 µM
# Time: 16 h
# Reference: vehicle-treated
SMILES,GFP-positive cells [%]
CCC(=O)O[C@]1(C(=O)SCF)[C@H](C)C[C@H]2[C@@H]3C[C@H](F)C4=CC(=O)C=C[C@]4(C)[C@@]3(F)[C@@H](O)C[C@@]21C,108
CCCCCCCCCCCCCCCCCCCCCCO,77.7
COC(=O)C1=C(C)NC(C)=C(C(=O)OCCN(C)Cc2ccccc2)C1c1cccc([N+](=O)[O-])c1 (centres unmarked),40.6

# Block 4
# Target: Replicase polyprotein 1ab, polymerase (rep, Severe acute respiratory syndrome coronavirus 2, UniProt P0DTD1)
# Effect on: enzyme activity
# Mode: inhibitor
# Concentration: 20 µM
Compound,inhibition [%]
CCNC(=O)c1noc(-c2cc(C(C)C)c(O)cc2O)c1-c1ccc(CN2CCOCC2)cc1,-4.49
c1coc(-c2nnc3sc(C4CCCCC4)nn23)c1,-8.9
Cc1ccc(S(=O)(=O)c2ccc([N+](=O)[O-])o2)cc1,-3.46
CCOc1cc(OCC)c(C(=O)CCC(=O)O)cc1OCC,-1.89
N/C(=N\C(=O)c1nc(Cl)c(N)nc1N)NCc1ccccc1,-2.08
CC(C)(CO)Cc1cc(C(C)(C)C)c(O)c(C(C)(C)C)c1,-3.09
O=C(O)c1cc(=O)c2ccccc2[nH]1,-7.54
O=C(O)CCCc1ccc(N(CCCl)CCCl)cc1,5.41
NC[C@H](O)c1ccc(O)c(O)c1,34
CCC(=C(CC)c1ccc(OP(=O)(O)O)cc1)c1ccc(OP(=O)(O)O)cc1,4.66
CN1CCN(c2ccc(/C=C(\C#N)c3ccccc3Br)cc2)CC1,-0.56
CN(C)CCCN1c2ccccc2Sc2ccccc21,21.6
COC(=O)Nc1ccc2[nH]cc(CCNC(C)=O)c2c1,-9.52
O=C(CN1C(=O)C2(CCCC2)NC[C@H]1c1cc(F)cc(F)c1)Nc1ccc2c(c1)C[C@@]1(C2)C(=O)Nc2ncccc21,-1.34
O=C(NCc1cccc(O)c1)Nc1nc(-c2ccncc2)cs1,-3.11
CN(C)c1nc(N)c(C(=O)Nc2cccnc2)nc1Cl,10.3
COc1cc2c(NC3CCN(C)CC3)nc(N3CCCN(C)CC3)nc2cc1OCCOCCN(C)C,3.76
C[C@@H](O)[C@H]1C(=O)N2C(C(=O)O)=C(S[C@@H]3CN[C@H](C(=O)Nc4cccc(C(=O)O)c4)C3)[C@H](C)[C@H]12,5.85
CCCC(=O)O[C@]1(C(=O)COC(C)=O)CC[C@H]2[C@@H]3C[C@H](F)C4=CC(=O)C=C[C@]4(C)[C@@]3(F)[C@@H](O)C[C@@]21C,-4.91
C=CC1=C(C(=O)O)N2C(=O)[C@@H](NC(=O)/C(=N\O)c3csc(N)n3)[C@H]2SC1,2.04
CC(C)(C)c1cc(C(=O)/C(C#N)=N/Nc2cccc(Cl)c2)no1,0.99
Cc1ccc(NCCCc2ccccc2)c(N)c1,-0.31
CNS(=O)(=O)Cc1ccc2[nH]cc(CCN(C)C)c2c1,-4.13
N[C@@H](Cc1cc(I)c(Oc2cc(I)c(O)c(I)c2)c(I)c1)C(=O)O,11.7
CCS(=O)(=O)c1cccc(-c2cc(C(=O)NC3CCN(C)CC3)c(C)c3[nH]c4ncc(C)cc4c23)c1,5.94

# Block 5
# Target: Sal-like protein 4, full length isoform A (SALL4, Homo sapiens, UniProt Q9UJQ4, residues 1-1053)
# UniProt Q9UJQ4, sequence (whole entry, looked up): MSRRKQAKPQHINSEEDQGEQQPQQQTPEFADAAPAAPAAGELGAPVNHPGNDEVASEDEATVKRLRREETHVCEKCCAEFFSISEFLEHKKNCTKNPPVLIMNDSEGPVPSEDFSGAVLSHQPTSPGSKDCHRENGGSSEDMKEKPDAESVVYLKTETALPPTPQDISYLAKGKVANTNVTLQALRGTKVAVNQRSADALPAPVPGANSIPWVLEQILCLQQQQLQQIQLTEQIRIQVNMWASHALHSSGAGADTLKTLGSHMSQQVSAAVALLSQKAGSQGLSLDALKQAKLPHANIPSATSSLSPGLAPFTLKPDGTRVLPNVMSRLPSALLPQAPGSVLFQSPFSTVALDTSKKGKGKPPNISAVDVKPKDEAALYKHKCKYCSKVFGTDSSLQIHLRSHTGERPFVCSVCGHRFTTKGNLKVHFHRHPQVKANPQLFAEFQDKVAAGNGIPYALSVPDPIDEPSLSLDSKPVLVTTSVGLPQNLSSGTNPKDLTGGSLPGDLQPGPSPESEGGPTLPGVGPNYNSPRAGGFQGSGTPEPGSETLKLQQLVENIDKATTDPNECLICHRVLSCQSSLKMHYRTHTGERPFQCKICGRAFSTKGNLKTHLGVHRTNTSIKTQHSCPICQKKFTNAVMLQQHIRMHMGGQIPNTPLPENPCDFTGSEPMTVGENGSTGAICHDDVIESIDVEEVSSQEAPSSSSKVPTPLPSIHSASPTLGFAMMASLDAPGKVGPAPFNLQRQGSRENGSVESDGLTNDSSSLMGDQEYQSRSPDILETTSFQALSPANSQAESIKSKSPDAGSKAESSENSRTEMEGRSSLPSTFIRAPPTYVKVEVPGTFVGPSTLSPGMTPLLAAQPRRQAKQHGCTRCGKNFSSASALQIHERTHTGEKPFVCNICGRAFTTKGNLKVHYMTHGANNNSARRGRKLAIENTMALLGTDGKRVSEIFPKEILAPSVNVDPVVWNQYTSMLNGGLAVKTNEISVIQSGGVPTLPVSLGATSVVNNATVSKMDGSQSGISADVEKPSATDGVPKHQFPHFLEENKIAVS
# Method: universal PBM
# Form: double-stranded DNA, one strand shown
# Matrix: in vitro
# Concentration: 600 nM
# Notes: 8-mer, flanks averaged, mean of replicates
# Direction: higher = stronger binding
Oligonucleotide,E-score
ACCGTGCG,-0.125
CACCCCGC,-0.181
ATGCAGTA,0.121
CAACTATC,0.0516
CTGAGCGC,-0.323
TAAATGCA,0.282
CATAGTCC,0.0555
AAAGCATC,0.0882

# Other studies, line by line
SMILES,tested on,assay,system,setting,endpoint,value
O=C(NCCCNc1nc(Nc2cccc(NC(=O)N3CCCC3)c2)ncc1I)c1cccs1,"Replicase polyprotein 1ab, main protease (rep, Severe acute respiratory syndrome coronavirus 2, UniProt P0DTD1)","enzyme activity, inhibitor",,"20 µM, hit confirmation, no DTT",inhibition,75.1%
CC(C)C[C@@H](C=O)NC(=O)[C@H](CC(C)C)NC(=O)[C@H](CC(C)C)NC(=O)OCc1ccccc1,SARS-CoV-2,"viral replication, qPCR",Vero E6,,IC50,120 nM

# Some of these lines once more (block 5):
Oligonucleotide,E-score
ATGCAGTA,0.121
CAACTATC,0.0516
CTGAGCGC,-0.323
TAAATGCA,0.282
CATAGTCC,0.0555
AAAGCATC,0.0882
